Measurements collected from several papers.
Compare with care: the assays were run in different laboratories. “And” joins repeats or separate records; there may be more than shown. Numbers after ± are the reported error.
UniProt P35462, sequence (whole entry, looked up): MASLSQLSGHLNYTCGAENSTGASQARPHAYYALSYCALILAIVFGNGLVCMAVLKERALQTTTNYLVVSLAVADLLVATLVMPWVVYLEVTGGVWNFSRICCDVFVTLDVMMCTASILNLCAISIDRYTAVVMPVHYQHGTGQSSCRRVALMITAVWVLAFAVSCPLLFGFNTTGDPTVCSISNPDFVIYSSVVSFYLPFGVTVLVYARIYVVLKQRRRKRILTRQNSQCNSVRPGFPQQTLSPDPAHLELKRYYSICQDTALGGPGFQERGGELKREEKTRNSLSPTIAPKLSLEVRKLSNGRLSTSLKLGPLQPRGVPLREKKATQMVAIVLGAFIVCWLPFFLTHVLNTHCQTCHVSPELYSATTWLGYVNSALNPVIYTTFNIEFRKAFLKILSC

SMILES	tested on	test	test system	setting	how to read	quantity	value
Cc1nn(CC(F)(F)F)cc1Nc1ncc(Br)c(NCc2ccc(S(N)(=O)=O)cc2)n1	THP1-Dual	western blot	–	20 µM, separate blot, added: HT-DNA	relative to: DMSO	phospho-TBK1 to TBK1 ratio	0.552 and 0.657 and 0.501
Cl.FC(F)(F)Oc1ccc(Nc2ccc3ncc(OCC4CCNCC4)nc3c2)cc1	MOLM-13	RT-qPCR, refers to: Meis1, Myc	–	0.3 and 1 µM, 3 days	–	mRNA level	no effect
COc1cnc2cccc(N3CCc4c(cc(Cn5ccnc5C)cc4-c4cn(C)nc4C(F)(F)F)C3=O)c2c1	HCC1833	cell growth	–	120 h	–	EC50	14.8 µM
CCCC1=C(C(=O)OCC)C(c2ccccc2Cl)C2=C(CC(c3ccc(OC)c(OC)c3)OC2=O)N1 (mixture of isomers)	J774.A1	cytotoxicity	–	–	–	EC50	> 20 µM
C[C@H]1CN(C2COC2)CCN1c1ccc(Nc2cc(-c3ccnc(N4CCn5c(cc6c5CC(C)(C)C6)C4=O)c3CO)cn(C)c2=O)nc1	TMD8	calcium flux, FLIPR	–	4 h preincubation, added: anti-IgM	–	maximum inhibition	59.3%
CC/C(=N\NC(=O)NCc1cccc(O)c1)c1ccc(O)c(C)c1O	SK-OV-3	Western blot	2D culture	10 µM, 1 h, unit not given	relative to: β-actin	YAP protein level	1.61 ± 0.34
CC(C)C[C@H](NC(=O)[C@H](Cc1ccccc1)NC(=O)c1cnccn1)B(O)O	BRD4-HiBiT cells	BRD4 degradation rescue, inhibitor	–	4 h, added: dBET6 500 nM	–	EC50	0.121 µM
CC(C)=CCC[C@@]1(C)C(CC[C@H]2[C@]3(C)CC[C@H](O)C(C)(C)O[C@H]3CC[C@@]2(C)O)=C(C)CC[C@H]1O	KB-3-1	–	–	10 µM	–	intracellular [3H]-paclitaxel	no effect
Cc1cccc(-c2[nH]c(CNc3ccccc3F)nc2-c2ccc3ncnn3c2)n1	MM1.S pomalidomide-resistant	XTT	–	4 µM	–	viability	18% and 13%
Cc1nc(NC(=O)N2CCC[C@H]2C(N)=O)sc1-c1ccnc(C(C)(C)C(F)(F)F)c1	AGS	CellTiter-Glo	–	120 h	–	Hill coefficient	2.19
Cc1nn(-c2nc3c(F)cc(F)cc3s2)c(O)c1C(c1cccc(C(F)(F)F)c1)c1c(C)nn(-c2nc3c(F)cc(F)cc3s2)c1O	THP1-Dual	IFN luciferase reporter	–	20 µM, added: HT-DNA	–	inhibition	75% and 76.9% and 72.5% and 72.7% and 77%
O=C(/C=C/C=C/C=C/C1CCCCC1)NC1=C[C@@](O)(/C=C/C=C/C=C/C(=O)NC2=C(O)CCC2=O)[C@@H]2O[C@@H]2C1=O	rerflcms	cell growth, inhibitor, CellTiter-Glo luminescence	–	78 h	relative to: day 0 cell count	GI50	11.8 µM
CC(C)=CCNc1ncnc2c1ncn2[C@@H]1O[C@H](CO)[C@@H](O)[C@H]1O	mock-transfected cells	TGFα shedding, agonist	–	10 µM	relative to: unstimulated vehicle control	AP-TGFα release	6.3% and 6.97% and 6.16%
CCCN1CCN(c2ccc3nc(-c4ccc5nc(-c6cc(OC)ccc6OC)[nH]c5c4)[nH]c3c2)CC1	MDA-MB-435	SRB	–	10 µM, 48 h	–	growth percent	106%
CCn1cc(-c2cc(Cn3ccnc3)cc3c2CCN([C@H](c2cc(OC)ccn2)C2CC2)C3=O)c(C(F)(F)F)n1	NCI-H520	cell growth, inhibitor	–	120 h	–	EC50	6.68 µM
CC(C)C[C@@H](C=O)NC(=O)[C@H](CC(C)C)NC(=O)[C@H](CC(C)C)NC(=O)OCc1ccccc1	BRD4-HiBiT cells	BRD4 degradation rescue, inhibitor	–	24 h, added: dBET6 500 nM	–	EC50	0.144 µM
Cc1[nH]c(C)c(S(=O)(=O)Nc2ccc(C(F)(F)F)c(Cl)c2)c1S(=O)(=O)Nc1ccc(C(F)(F)F)c(Cl)c1	DRD3 (Homo sapiens, UniProt P35462)	Go activation, antagonist, BRET	–	added: dopamine	–	IC50	> 100 µM
C[C@@H](O)[C@H](NC(=O)Nc1ncnc2c1ncn2[C@@H]1O[C@H](CO)[C@@H](O)[C@H]1O)C(=O)O	mock-transfected cells	TGFα shedding, agonist	–	10 nM	relative to: unstimulated vehicle control	AP-TGFα release	0%
NS(=O)(=O)OC[C@H]1C[C@@H](Nc2ccnc3cc(-c4cccc(SC(F)(F)F)c4)nn23)[C@H](O)[C@@H]1O	BRD4-HiBiT cells	BRD4 degradation rescue, inhibitor	–	2 h, 50% degradation rescued, added: dBET6 500 nM	–	EC50	0.491 µM
C[C@H]1[C@@H](O)O[C@@H]2O[C@@]3(C)CC[C@H]4[C@H](C)CC[C@@H]1[C@@]24OO3	THP-1	annexin V/PI flow cytometry, refers to: annexin V+/PI+	–	1.6 µM, 24 h	–	late apoptotic cells	1.6%
Cn1cc(-c2ccc(-c3cncc(Cl)c3N3CCC4(CCNC4=O)CC3)cc2)cn1	COLO 205	gene expression, microarray, refers to: DEFB1 mRNA	–	concentration not given, 6 h	relative to: untreated cells	log2 fold change	4.08
Cc1cc(-c2ccccc2)n(-c2nc(-c3ccc(Cl)cc3)c3c(NC(=O)c4ccccc4)nnc-3[nH]2)n1	MDA-MB-435	SRB	–	10 µM, NCI60 single-dose screen	relative to: untreated	cell growth	97.3%
CC(C)C[C@H](NC(=O)CNC(=O)c1cc(Cl)ccc1Cl)B(O)O	BRD4-HiBiT cells	BRD4 degradation rescue, inhibitor	–	2 h, added: dBET6 500 nM	–	EC50	0.239 µM
CCn1cc(-c2cc(Cn3ccoc3=N)cc3c2CCN([C@@H](C)c2cc(OC)ccn2)C3=O)c(C(F)(F)F)n1	SU-DHL-8	cell growth, inhibitor	–	120 h	–	EC50	0.545 µM
Cc1nn(-c2nc3c(F)cc(F)cc3s2)c(O)c1C(c1ccc(C(F)(F)F)cc1)c1c(C)nn(-c2nc3c(F)cc(F)cc3s2)c1O	RAW-ISG	TBK1 phosphorylation, western blot	–	10 µM, added: poly(I:C)	relative to: DMSO	phospho-TBK1/TBK1 ratio	0.958
O=C(C[C@@H](C(F)F)n1ccc(F)n1)N1CCC(O)(Cn2cnc3c(cnn3-c3ccc(F)cc3)c2=O)CC1	CHP-212 parental	annexin V/PI flow cytometry	–	1 µM, 48 h	–	viable cells	42.2% and 54% and 45.8%

SMILES	tested on	test	test system	setting	how to read	quantity	value
COc1ccc(C2CC3=C(C(=O)O2)C(c2ccccc2Cl)C(C(=O)OC(C)(C)C)=C(C)N3)cc1OC (stereo not drawn)	J774.A1	cytotoxicity	–	–	–	EC50	> 20 µM
CCCCc1nc2c(N)nc3ccccc3c2n1Cc1ccc(CN)cc1	human PBMC	ELISA	–	concentration not given	relative to: resiquimod	IFN-α induction	~10 fold
C=CCn1c(=O)c2cnc(Nc3ccc(N4CCN(C)CC4)cc3)nc2n1-c1ccc2c(n1)[C@@](O)(CC)CC2	MDA-MB-231	flow cytometry, refers to: pHH3-γH2Ax-	–	concentration not given	–	G2/M cells in subpopulation	67.8%
C[C@H](CCC(=O)NCCS(=O)(=O)O)[C@H]1CC[C@H]2[C@@H]3CC[C@@H]4C[C@H](O)CC[C@]4(C)[C@H]3CC[C@]12C	human ADPKD PLD cystic cholangiocytes	cell counting	–	20 µM, 48 h	relative to: untreated	proliferation increase	53%
COc1cc(N2CCC(N3CCN(C)CC3)CC2)ccc1Nc1ncc(Cl)c(Nc2ccccc2P(C)(C)=O)n1	Aska-SS (ALK exon 2-17 deletion)	cell viability	–	–	–	Emax	80%
CN(C)CCOc1cc(NC(=O)c2cc(Cl)cc(C(=O)Nc3cc(OCCN(C)C)c4ccccc4n3)n2)nc2ccccc12	HT-1080	cell viability, CellTiter-Glo	–	72 h	relative to: IC50 HT-1080 over WI-38	selectivity ratio	1.8
CC(=O)Nc1cccc(-n2c(=O)n(C3CC3)c(=O)c3c(Nc4ccc(I)cc4F)n(C)c(=O)c(C)c32)c1	LoVo (KRAS G13D)	cell viability, resazurin	–	100.00 nM, 72 h	relative to: DMSO	average fractional effect	71%
CCCCC[C@H](O)/C=C/[C@H]1C(=O)C[C@H](O)[C@@H]1C/C=C\CCCC(=O)O	HEK293-A2AR cells, SLCO2A1 knockout	HTRF cAMP	–	50 nM	–	HTRF cAMP signal	328 a.u. and 335 a.u. and 336 a.u.
FC(F)(F)COCC(F)(F)F	MDA-MB-231 BAX/BAK siRNA knockdown	CellTiter-Glo	–	concentration not given	relative to: normalised luminescence	viability	45.1% and 63.5%
Cc1cc(Nc2ncc(Cl)c(Nc3ccccc3S(=O)(=O)C(C)C)n2)c(OC(C)C)cc1C1CCNCC1	CLB-GE	phosphoproteomics LC-MS/MS, refers to: FAM59B phosphorylation	–	200 nM, 60 min	relative to: untreated	log2 fold change	-1.61
Nc1ncnc2c1ncn2[C@@H]1O[C@H](COP(=O)(O)O)[C@@H](O)[C@H]1O	MDA-MB-231 BAX/BAK siRNA knockdown	cell viability, CellTiter-Glo	–	–	direction not given	Z score	1.49
CCOC(=O)C1=C(C)NC2=C(C(=O)OC(c3ccc(OC)c(OC)c3)C2)C1c1ccccc1OC (stereo not drawn)	J774.A1	cytotoxicity	–	–	–	EC50	> 20 µM
COc1cc(/C=C/C(=O)N2CCC=CC2=O)cc(OC)c1OC	MDA-MB-468	qRT-PCR, refers to: NDUFS4	–	30 µM, 6 h	relative to: time zero	mRNA level	85.8 ± 5.4%
NCCOc1cc(C(=O)Nc2cc(OCCN3CCCC3)c3ccccc3n2)nc(C(=O)Nc2cc(OCCN3CCCC3)c3ccccc3n2)c1	HT-1080	cell viability, CellTiter-Glo	–	72 h	relative to: IC50 HT-1080 over WI-38	selectivity ratio	2.6
Cc1cnc(NC2CCOCC2)nc1-n1cnc(C(=O)NC(CN)c2cc(F)cc(Cl)c2)c1 (stereo not drawn)	MINO	flow cytometry	–	1 µM, 48 h	–	S phase cells	9.3%
CCCCN1C[C@H](O)[C@@H](O)[C@@H](O)[C@H]1CO	sample F patient fibroblasts	GlcCer level lowering, LC-MS/MS, refers to: GlcCer d18:1/24:1	–	216 h	–	IC50	17 µM
COC(=O)C1=C(C)NC2=C(C(=O)OC(c3ccc(OC)c(OC)c3)C2)C1c1ccccc1Cl (stereo not drawn)	J774.A1	cytotoxicity	–	–	–	EC50	> 20 µM
CC(C)NCC(O)c1ccc(O)c(O)c1 (stereo not drawn)	mouse ventricular cardiomyocytes	–	–	dose not given, 0.263 s	–	sarcomere length	1.8 µm
Cn1cc(Nc2nccc(-c3ccc4c(c3)CN(C3COC3)CC[C@H]4NC(=O)c3cn(C(C)(C)C)nn3)n2)cn1	mouse splenic B cells	refers to: Relaxin signalling	–	30 mg/kg, IgD-activated in vivo	relative to: vehicle, direction not given	pathway activation z-score	3.21
O=C1NCN(c2ccccc2)C12CCN(CCCC(c1ccc(F)cc1)c1ccc(F)cc1)CC2	MDA-MB-231 BAX/BAK siRNA knockdown	CellTiter-Glo	–	concentration not given	relative to: normalised luminescence	viability	27.4% and 15.6%
C=CC1=C(C)c2cc3[n-]c(cc4nc(cc5[n-]c(cc1n2)c(C)c5C=C)C(C)=C4CCC(=O)O)c(CCC(=O)O)c3C.[Zn+2]	SH-SY5Y	RNA-seq, refers to: PHLDA1 mRNA	–	5 µM, 5 h	relative to: untreated cells	fold change	1.72
C=CC(=O)N1CCC[C@@H](c2ccc(C(N)=O)c3[nH]ccc23)C1	TMD8 RAC2 knock-out	calcium flux, FLIPR	–	–	–	IC50	< 0.1 µM
O=P(O)(O)C(O)(Cn1ccnc1)P(=O)(O)O	hFOB 1.19	AlamarBlue	–	1.9 µM, 72 h	relative to: control	viability	100 ± 1%
CC/C(=N\NC(=O)C(C)Nc1ccccc1)c1ccc(O)c(C)c1O (stereo not drawn)	SK-OV-3	Western blot, refers to: LATS	–	10 µM, 6 h, 2D culture, unit not given	relative to: β-actin	protein level	0.9 ± 0.4
CCc1cnc(N2CCC(c3nc(COc4ccc(-n5cnnn5)cc4)cs3)CC2)nc1	HEK-293T	RNA-seq GSEA, refers to: HALLMARK_MYC_TARGETS_V2	–	concentration not given	direction not given	normalized enrichment score	-2.4

For quick reference, copied from above:
SMILES	tested on	test	test system	setting	how to read	quantity	value
FC(F)(F)COCC(F)(F)F	MDA-MB-231 BAX/BAK siRNA knockdown	CellTiter-Glo	–	concentration not given	relative to: normalised luminescence	viability	45.1% and 63.5%
O=C1NCN(c2ccccc2)C12CCN(CCCC(c1ccc(F)cc1)c1ccc(F)cc1)CC2	MDA-MB-231 BAX/BAK siRNA knockdown	CellTiter-Glo	–	concentration not given	relative to: normalised luminescence	viability	27.4% and 15.6%
C[C@@H](O)[C@H](NC(=O)Nc1ncnc2c1ncn2[C@@H]1O[C@H](CO)[C@@H](O)[C@H]1O)C(=O)O	mock-transfected cells	TGFα shedding, agonist	–	10 nM	relative to: unstimulated vehicle control	AP-TGFα release	0%
CC(C)C[C@H](NC(=O)CNC(=O)c1cc(Cl)ccc1Cl)B(O)O	BRD4-HiBiT cells	BRD4 degradation rescue, inhibitor	–	2 h, added: dBET6 500 nM	–	EC50	0.239 µM
C[C@H](CCC(=O)NCCS(=O)(=O)O)[C@H]1CC[C@H]2[C@@H]3CC[C@@H]4C[C@H](O)CC[C@]4(C)[C@H]3CC[C@]12C	human ADPKD PLD cystic cholangiocytes	cell counting	–	20 µM, 48 h	relative to: untreated	proliferation increase	53%
O=P(O)(O)C(O)(Cn1ccnc1)P(=O)(O)O	hFOB 1.19	AlamarBlue	–	1.9 µM, 72 h	relative to: control	viability	100 ± 1%
